Published values gathered from unrelated publications.
Parts stem from different laboratories: compare values within a part only.

Series 1 — technique: protein binding microarray; form: double-stranded DNA, one strand shown; matrix: in vitro; tested at: not given; relative to: not given; direction: higher = stronger binding
Target: Histone acetyltransferase KAT6A, winged helix 2, GST fusion (KAT6A, Homo sapiens, UniProt Q92794, residues 85-181)
Notes: 8-mer, flanks averaged, mean of 2 arrays, mostly near background
Residues (chain): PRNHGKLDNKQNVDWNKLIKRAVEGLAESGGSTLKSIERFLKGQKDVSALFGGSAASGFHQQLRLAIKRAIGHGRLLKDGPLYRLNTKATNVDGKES
With `ATCAGCAG` the E-score was 0.0496.
The E-score of `GATTCAAA` is reported as -0.106.
With `TCCCTGCA` the E-score was -0.0382.
The E-score of `CACCCCAA` is reported as -0.056.
`AACAACCC` has an E-score of -0.0244.
The E-score of `CCCTGAAC` is reported as 0.103.
For `CCAGGGCG`, the E-score was 0.188.
For `GGGGTCCA`, the E-score was -0.0526.
`CAAGGGTA` has an E-score of -0.243.
For `GAATCATC`, the E-score was -0.0235.
`CAGAGGGG` has an E-score of 0.153.
With `AGACCGCC` the E-score was 0.0309.
With `CTGTTCTC` the E-score was 0.03.

Series 2 — technique: competition protein-binding microarray; form: double-stranded DNA, one strand shown; matrix: in vitro; tested at: 2 µM; with: Pho4 competitor, 0.05 µM; direction: higher = stronger binding
Target: Centromere-binding protein 1, full length, His-tagged (CBF1, Saccharomyces cerevisiae, UniProt P17106, residues 1-351)
UniProt P17106, sequence (whole entry, looked up): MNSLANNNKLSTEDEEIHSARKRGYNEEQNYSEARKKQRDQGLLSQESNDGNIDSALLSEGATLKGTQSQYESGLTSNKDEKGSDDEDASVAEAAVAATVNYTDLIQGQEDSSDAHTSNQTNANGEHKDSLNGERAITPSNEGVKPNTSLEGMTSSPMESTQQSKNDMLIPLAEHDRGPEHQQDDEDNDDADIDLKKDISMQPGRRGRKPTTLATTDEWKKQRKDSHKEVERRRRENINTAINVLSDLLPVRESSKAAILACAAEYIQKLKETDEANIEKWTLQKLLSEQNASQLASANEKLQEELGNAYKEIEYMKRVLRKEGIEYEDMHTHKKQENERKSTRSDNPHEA
Notes: whole 60-bp probe, lowest competitor level
`GTAGTTCCCAGTCTTTTCGTGATGGTCAACTTAACGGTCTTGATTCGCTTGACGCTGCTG` has a fluorescence intensity of 69 a.u.
`CTAACGAAGGTTTGGAGTGTGGGTGACAAGCCAAGTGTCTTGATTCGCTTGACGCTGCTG` gave a fluorescence intensity of 69.7 a.u.
The fluorescence intensity of `AAATTACTAAGTTGCAACGTGGGTGACGCCGTATGAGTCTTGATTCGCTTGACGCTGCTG` is reported as 91.3 a.u.
The fluorescence intensity of `AAATTACTAAGTTGTGAGGTGGGTGACGCCGTATGAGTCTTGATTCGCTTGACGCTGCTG` is reported as 77.2 a.u.
For `GTCTTGTCTCATTGTTATGTGGGTGTCCCCACTTCAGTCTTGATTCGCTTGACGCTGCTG`, the fluorescence intensity was 87.6 a.u.
For `CCTTGTTCCGGAGCGCACATGGCATTTCAAGGTCAAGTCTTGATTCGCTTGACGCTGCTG`, the fluorescence intensity was 99.5 a.u.
`GCGGTCGGTAAATTTTTCGTGGGTATCTTTGAATCTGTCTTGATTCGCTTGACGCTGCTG` gave a fluorescence intensity of 75.8 a.u.

Series 3 — technique: RNA Bind-n-Seq; form: RNA; matrix: in vitro; tested at: 365 nM; relative to: no-protein control; direction: higher = stronger binding
Target: RNA binding protein fox-1 homolog 2, RRM domain, GST-SBP tag (RBFOX2, Homo sapiens, UniProt O43251-10, residues 100-194)
Notes: natural RNA segment, single round, ends assumed
Construct (chain): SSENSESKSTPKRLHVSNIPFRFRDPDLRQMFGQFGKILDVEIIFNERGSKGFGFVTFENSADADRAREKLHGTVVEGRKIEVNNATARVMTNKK
For `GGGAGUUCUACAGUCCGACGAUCGGUGGGGAGACCCAUUUGUAAUCUAUAUGGCAGUUCCAUCUGGGUUUUAAGUUUAGAUUUCACCGUGUCUUAGUGCUUCAUUCUAUUGGUUUAUUGGAACAUGUAAUAAAUGGAAUUCUCGGGUGCCAA`, “RBNS enrichment (R)” read 0.492.
Under “RBNS enrichment (R)”, `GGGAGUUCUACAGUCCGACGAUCGGUAUUGAGGGGAGUCAGCAUGUAUUUGCAGCUUAUGUUCAUGGGCAUAUAUAAACAUGUGUAUGUGCAAUAUAUCGAUAUAGAAUUCUGCCAAAAAUCAAGGUUUAAAAUGGAAUUCUCGGGUGCCAA` is recorded as 1.2.
Under “RBNS enrichment (R)”, `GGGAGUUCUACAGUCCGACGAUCUUUUAUUGGGAAAUUAAAUAGUGUGAUAUUUGGGUUGAUAUAAUGAAAUCCUCAGCCUGGAAACUGGGCCAGAUUGUUCCUUGCUUCAAAUAUCUUUUCCUAAAGAAGAUUGGAAUUCUCGGGUGCCAA` is recorded as 0.599.
`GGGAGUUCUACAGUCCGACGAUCCACCCCCCGGCAUCCUGGAGAGCAUGAGCUGUUUCCAAAAUCGGAUUCUCAGCUGUCACUGUUUCUUCCAAAAGUUGCUAUUUAUACAAGGGUAUCAGCUUUUCCUUAGAUGGAAUUCUCGGGUGCCAA` — result for “RBNS enrichment (R)”: 4.3.
For `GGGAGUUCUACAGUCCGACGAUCGGGGAUAUAUUCACUACUUUGGGAUACCCCCAAACCUGUUCUGACGUCGUGAGUGUCAAAUGUGUCCCACUCCUCCCUAGAAGUUAUGAACACUACACACAGUCAAUAAAUGGAAUUCUCGGGUGCCAA`, “RBNS enrichment (R)” read 0.389.
Under “RBNS enrichment (R)”, `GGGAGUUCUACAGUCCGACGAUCCUGGAACUGUUGGACACAGUUGAAAGUGUGGUGGGGAAACCAUACAAUUGUUUUUACAGUUUUAGCCAAGUUUCUGUGAAUGCUAGAGAUUUAUACUUGAUUAUUUGUAUUGGAAUUCUCGGGUGCCAA` is recorded as 5.67.
For `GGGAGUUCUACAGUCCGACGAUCUGUGGCUCUGAGCUGCUCUACAGAGCUUCAGUGUGAGAGGAUCGAGCCAUUGAAAGCUCAUUACCAGUAGGACAUAAUUUUUGGCUCUCCCUAUUCACAACCAGUGCACAUGGAAUUCUCGGGUGCCAA`, “RBNS enrichment (R)” read 0.35.
`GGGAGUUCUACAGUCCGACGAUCAAACACAGACAGAUCCAAGGAAAUGUCUCUUUAUAAUGUUCUUAGGAUGGACUAGACCCAUAAAUGUGCCAUGAAUCAAAAUAUUAAUAAUUUGAAAGCUUUCAUGCUGUUGGAAUUCUCGGGUGCCAA`: “RBNS enrichment (R)” 0.541.
For `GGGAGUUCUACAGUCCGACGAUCAUAUUUCCUUCAGGUGUGUGUAAAAUAUGCUGCUUGGAUUGAAAUUCAAAUGGGAUUGAUUAGUCAAGUAACUUGAGACCUCACAGUAAUCUUCACACUUAACCUUAGACUGGAAUUCUCGGGUGCCAA`, “RBNS enrichment (R)” read 0.388.
`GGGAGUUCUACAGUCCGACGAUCGAUAGAGAAAUAUGUCUUUGAAGCUCCACUUACACAAAAAUAAAACUUGUAUAUCAUGCUCCCUCAAAGAAUGUGCGAUAGAUUAUUUUAAGACCAUGAUAAUAGAGUAAUGGAAUUCUCGGGUGCCAA`: “RBNS enrichment (R)” 0.738.
Under “RBNS enrichment (R)”, `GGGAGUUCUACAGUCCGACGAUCGGUGCAAACUACCACGCCUGGCAGACCCACCAUUUCUUUGCUUUGGAAAGGUAAUUUAUGAUUAACUUAGAUAAUAGGUAAAAGCGACCUUACAAAAAACAUAAUUAUCUUGGAAUUCUCGGGUGCCAA` is recorded as 0.57.
`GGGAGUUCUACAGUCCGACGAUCCUUUCACGUUGUUUUCGCUGCUAUUGGAGGGUCAGUUUUGUUUUGUUUUGUUUUACAAUGUCAGACUGCCAUGUUCAAGUUUUAAUUUCCUCAUAGAGUGUAUUUACAGAUGGAAUUCUCGGGUGCCAA` — result for “RBNS enrichment (R)”: 0.977.

Other studies, line by line
For `PhoQ, residues 284 288 289 292 302 303 AANNSF`, the fold induction was 1.8 (PhoP, residues 12 14 15 18 19 NYFRM (Escherichia coli, UniProt P23836); Sort-seq, item: YFP reporter; E. coli; PhoQ-PhoP variant library, with: 10 µM Mg2+; relative to: high Mg2+ state, higher = stronger signaling).

Some of these lines once more (series 2):
`GCGGTCGGTAAATTTTTCGTGGGTATCTTTGAATCTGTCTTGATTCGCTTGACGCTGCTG` gave a fluorescence intensity of 75.8 a.u.
For `CCTTGTTCCGGAGCGCACATGGCATTTCAAGGTCAAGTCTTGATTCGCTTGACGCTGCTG`, the fluorescence intensity was 99.5 a.u.
For `GTCTTGTCTCATTGTTATGTGGGTGTCCCCACTTCAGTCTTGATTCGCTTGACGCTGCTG`, the fluorescence intensity was 87.6 a.u.
